Experimental data from different studies.
Every numbered part comes from another study and shows a few of its results, in no order.

Set 1
Target: Prothrombin, mature alpha-thrombin (F2, Homo sapiens, UniProt P00734)
Method: aptamer microarray, sandwich
Form: DNA with 2'F-ANA
Medium: in vitro
Tested at: 200 nM
Notes: whole 15-mer aptamer, many near background
Added: Cy3 exosite-II aptamer, 400 nM
Direction: higher = stronger binding
Strand: GGTTGGTGTGGTTGG
Under “mean fluorescence intensity”, `2'F-ANA at 1 3 4 6 7 8 9 10 11 13 14 15` is recorded as 57.7 a.u.
For `2'F-ANA at 3 5 6 7 10 13 14`, “mean fluorescence intensity” read 65 a.u.
`2'F-ANA at 2 3 5 6 7 10 12 14 15`: “mean fluorescence intensity” 48.8 a.u.
`2'F-ANA at 6 7 11 12 14 15`: “mean fluorescence intensity” 214 a.u.
`2'F-ANA at 1 5 7 8` — result for “mean fluorescence intensity”: 61.7 a.u.
`2'F-ANA at 4 9 10 11 12 14 15` — result for “mean fluorescence intensity”: 68.9 a.u.
Under “mean fluorescence intensity”, `2'F-ANA at 2 3 4 6 10 11 12 13 15` is recorded as 208 a.u.
`2'F-ANA at 2 3 5 6 7 8 11 12 13 14 15` — result for “mean fluorescence intensity”: 61.1 a.u.
`2'F-ANA at 5 6 7 8 9 11 13 14 15` — result for “mean fluorescence intensity”: 46 a.u.
`2'F-ANA at 1 2 4 6 7 10 14`: “mean fluorescence intensity” 43 a.u.
Under “mean fluorescence intensity”, `2'F-ANA at 1 3 4 11` is recorded as 209 a.u.
`2'F-ANA at 3 5 6 8 10 13 14`: “mean fluorescence intensity” 48.5 a.u.
`2'F-ANA at 2 3 5 10 11` — result for “mean fluorescence intensity”: 106 a.u.
For `2'F-ANA at 2 3 15`, “mean fluorescence intensity” read 839 a.u.
`2'F-ANA at 2 7 8 13 15` — result for “mean fluorescence intensity”: 420 a.u.
Under “mean fluorescence intensity”, `2'F-ANA at 2 5 10 11 12 13 15` is recorded as 62 a.u.
Under “mean fluorescence intensity”, `2'F-ANA at 3 4 5 7 8 9 13 14` is recorded as 50.7 a.u.
Under “mean fluorescence intensity”, `2'F-ANA at 1 5 6 8 10 14 15` is recorded as 58.5 a.u.
`2'F-ANA at 2 3 5 6 13 14 15`: “mean fluorescence intensity” 174 a.u.
Under “mean fluorescence intensity”, `2'F-ANA at 1 6 10 11 12 13 15` is recorded as 70.2 a.u.
For `2'F-ANA at 1 3 4 5 7 8 10 11 12 14`, “mean fluorescence intensity” read 48.9 a.u.
Under “mean fluorescence intensity”, `2'F-ANA at 1 3 5 6 7 8 10 12 15` is recorded as 48 a.u.
`2'F-ANA at 1 3 6 7 8 9 10 11 12 13 15` — result for “mean fluorescence intensity”: 115 a.u.
Under “mean fluorescence intensity”, `2'F-ANA at 1 3 4 5 6 12 14` is recorded as 65.7 a.u.
`2'F-ANA at 1 8 9 10 12 14` — result for “mean fluorescence intensity”: 48.2 a.u.

Set 2
Target: Interferon regulatory factor 5, full length, phosphomimetic (IRF5, Homo sapiens, UniProt Q13568-2, residues 1-514, K96S/S451D/S453D/S456D/S462D)
Method: protein-binding microarray
Form: double-stranded DNA, one strand shown
Medium: in vitro
Tested at: 250 nM
Notes: 60-bp whole probe
Added: salmon DNA 0.4 mg/ml
Baseline: random background probes
Direction: higher = stronger binding
Shared flanks, not repeated: GCCTAGCAC … GTCTTGATTCGCTTGACGCTGCTG
With `TTAGAACTGAATTTCGATTAGTGCTAG` the log fluorescence was 6.39 z-score.
`TTAGGACTTGACACTGGGTTAGTGCTA` has a log fluorescence of -0.424 z-score.
The log fluorescence of `GACGAACAGAGTTTCGAGACGTGCTAG` is reported as 3.4 z-score.
With `TTAGGTTTGGACTTTCGGTTAGTGCTA` the log fluorescence was 8.72 z-score.
The log fluorescence of `TCAGTTTCTATTTTCTGACTGTGCTAG` is reported as 5.85 z-score.
For `TACGATTTCGGGACTGGAGACGTGCTA`, the log fluorescence was 1.76 z-score.
`TTAGAACTGGGGACGGGATTAGTGCTA` gave a log fluorescence of -0.0599 z-score.
With `GACGATTTCAGTCTCTAGACGTGCTAG` the log fluorescence was 1.29 z-score.
For `TCATTTTTTAATTGAGAACTGTGCTAG`, the log fluorescence was 0.398 z-score.
`TTATGACTGGGACTGGGTTAGTGCTAG` has a log fluorescence of -0.045 z-score.
The log fluorescence of `TTAGAACTGGGTCTCGATTAGTGCTAG` is reported as 0.094 z-score.
For `TTAGGTCTACTTTTCCTTTAGTGCTAG`, the log fluorescence was 0.445 z-score.
With `GATAATTTTTTTCTAAGTAAGTGCTAG` the log fluorescence was 1.2 z-score.
With `CACATTCTCTGCTTGGGTCTGTGCTAG` the log fluorescence was 0.269 z-score.
With `TGAGATATCGGGTTTCGATTAGTGCTA` the log fluorescence was 7.22 z-score.
`GACGGTCTCGTTCTCCTGACGTGCTAG` has a log fluorescence of -0.162 z-score.
For `GACGATCTCAGTCTTGAGACGTGCTAG`, the log fluorescence was -0.257 z-score.
`TTAGAATTCAGTATCGATTAGTGCTAG` has a log fluorescence of 8.03 z-score.
The log fluorescence of `TGCTTCCTAATTCTCTTTTCGTGCTAG` is reported as 1.19 z-score.
With `TGGGTATTTTTTCTGAACCAGTGCTAG` the log fluorescence was 0.589 z-score.
For `TTGGTTTTCTCTATTGCTTTGTGCTAG`, the log fluorescence was 1.6 z-score.
For `GACAATATCAGACTGGAGACGTGCTAG`, the log fluorescence was 0.214 z-score.
For `GACGATATCAGTTTAGAGACGTGCTAG`, the log fluorescence was 1.66 z-score.

Set 3
Target: Histone acetyltransferase KAT6A, winged helix 2, GST fusion (KAT6A, Homo sapiens, UniProt Q92794, residues 85-181)
Method: protein binding microarray
Form: double-stranded DNA, one strand shown
Medium: in vitro
Tested at: not given
Notes: 8-mer, flanks averaged, mean of 2 arrays, mostly near background
Baseline: not given
Direction: higher = stronger binding
Construct (chain): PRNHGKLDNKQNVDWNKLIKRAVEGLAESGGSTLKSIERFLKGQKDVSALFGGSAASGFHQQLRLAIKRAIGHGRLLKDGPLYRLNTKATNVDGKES
`CACTGACA` gave an E-score of 0.04.
The E-score of `AACTAACG` is reported as 0.00739.
For `CAGGCTGG`, the E-score was 0.0339.
`CTATTTAA` gave an E-score of -0.121.
`CGACACTC` has an E-score of 0.0876.
With `CTGTCATC` the E-score was -0.0859.
For `ATCGGTAC`, the E-score was -0.0643.
`AGCGCTCA` has an E-score of 0.0289.
`ACAAGCAA` gave an E-score of 0.0559.
The E-score of `TACCTAAA` is reported as -0.159.
For `AGGCCATG`, the E-score was -0.0284.
`ACCCGGAC` has an E-score of 0.0294.
For `AAACTGGC`, the E-score was -0.0159.
`CCTCCTTC` has an E-score of -0.0216.
With `AGTTGGTC` the E-score was -0.0721.
For `ACCGGACT`, the E-score was 0.0398.
For `ACGGCACA`, the E-score was 0.0989.
`TTCAGAAA` has an E-score of 0.0717.
`CAGTTCTA` has an E-score of -0.0567.
The E-score of `CTTATACA` is reported as -0.0542.
For `ATGTCTCG`, the E-score was -0.0833.
`CCTATTCC` gave an E-score of -0.129.
`CTCTGTTA` gave an E-score of -0.0649.
`ACGCTGCA` gave an E-score of -0.143.
The E-score of `AGTTGTAT` is reported as -0.0204.

Set 4
Target: Sal-like protein 4, full length isoform A (SALL4, Homo sapiens, UniProt Q9UJQ4, residues 1-1053)
UniProt Q9UJQ4, sequence (whole entry, looked up): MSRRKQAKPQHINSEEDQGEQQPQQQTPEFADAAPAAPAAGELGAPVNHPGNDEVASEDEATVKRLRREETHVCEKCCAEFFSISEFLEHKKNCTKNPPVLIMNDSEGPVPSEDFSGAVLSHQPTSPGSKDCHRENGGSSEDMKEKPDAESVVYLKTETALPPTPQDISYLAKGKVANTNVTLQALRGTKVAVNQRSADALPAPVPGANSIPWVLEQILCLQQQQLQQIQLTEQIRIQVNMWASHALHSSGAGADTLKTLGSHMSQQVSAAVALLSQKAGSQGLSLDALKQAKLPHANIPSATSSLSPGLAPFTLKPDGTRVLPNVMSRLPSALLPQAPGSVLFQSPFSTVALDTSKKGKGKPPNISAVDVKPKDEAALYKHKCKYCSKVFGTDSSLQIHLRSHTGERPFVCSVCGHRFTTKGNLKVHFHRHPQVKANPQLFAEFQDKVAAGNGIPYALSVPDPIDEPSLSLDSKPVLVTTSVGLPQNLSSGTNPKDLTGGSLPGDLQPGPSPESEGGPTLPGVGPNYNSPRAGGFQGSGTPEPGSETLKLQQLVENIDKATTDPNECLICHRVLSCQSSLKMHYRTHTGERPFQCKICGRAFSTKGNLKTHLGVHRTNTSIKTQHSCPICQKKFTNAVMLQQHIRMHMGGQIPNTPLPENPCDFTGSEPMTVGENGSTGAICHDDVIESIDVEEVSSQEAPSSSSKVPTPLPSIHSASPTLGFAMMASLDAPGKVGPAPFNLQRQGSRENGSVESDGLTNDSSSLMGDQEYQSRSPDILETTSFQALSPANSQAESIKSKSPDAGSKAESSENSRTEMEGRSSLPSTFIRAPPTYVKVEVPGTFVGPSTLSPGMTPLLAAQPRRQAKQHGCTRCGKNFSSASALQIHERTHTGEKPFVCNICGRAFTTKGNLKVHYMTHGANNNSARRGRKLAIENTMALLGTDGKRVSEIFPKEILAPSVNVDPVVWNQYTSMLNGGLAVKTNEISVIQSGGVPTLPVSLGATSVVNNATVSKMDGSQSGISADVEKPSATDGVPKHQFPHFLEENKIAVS
Method: universal PBM
Form: double-stranded DNA, one strand shown
Medium: in vitro
Tested at: 600 nM
Notes: 8-mer, flanks averaged, mean of replicates
Direction: higher = stronger binding
With `ATACACAA` the E-score was 0.33.
For `GGATCGAA`, the E-score was -0.0707.
With `CTGGTGGC` the E-score was -0.389.
`CATTCGCG` gave an E-score of 0.011.
The E-score of `ACTTATTC` is reported as 0.236.
`CTTACACC` has an E-score of -0.258.
For `CAATCCCC`, the E-score was 0.00355.
The E-score of `GAAATGTC` is reported as 0.0492.
The E-score of `AGGATCGG` is reported as -0.224.
For `GGAAGACC`, the E-score was -0.307.
With `GCCAGTCA` the E-score was -0.193.
`ATTTCAAA` has an E-score of 0.336.
With `GTGGCCAC` the E-score was -0.197.
For `CTAGTCAG`, the E-score was -0.0954.
With `AATAGTTA` the E-score was 0.277.
The E-score of `CTGGCTGA` is reported as -0.262.
`CCTGTCAG` gave an E-score of -0.116.
`AACGCTAA` has an E-score of -0.0578.
With `ATCGTCTG` the E-score was -0.135.
`CGATCCTC` gave an E-score of -0.192.
`ATTTAGAC` has an E-score of 0.201.
`AATGCAGT` gave an E-score of 0.0839.
For `AAGTAGTC`, the E-score was -0.00307.
For `ATGGAGTC`, the E-score was 0.0633.
For `ATGAACGA`, the E-score was 0.179.

For quick reference, copied from above (set 2):
The log fluorescence of `TTAGAACTGGGTCTCGATTAGTGCTAG` is reported as 0.094 z-score.
For `TTAGGTCTACTTTTCCTTTAGTGCTAG`, the log fluorescence was 0.445 z-score.
With `GATAATTTTTTTCTAAGTAAGTGCTAG` the log fluorescence was 1.2 z-score.
With `CACATTCTCTGCTTGGGTCTGTGCTAG` the log fluorescence was 0.269 z-score.
With `TGAGATATCGGGTTTCGATTAGTGCTA` the log fluorescence was 7.22 z-score.
`GACGGTCTCGTTCTCCTGACGTGCTAG` has a log fluorescence of -0.162 z-score.
For `GACGATCTCAGTCTTGAGACGTGCTAG`, the log fluorescence was -0.257 z-score.
`TTAGAATTCAGTATCGATTAGTGCTAG` has a log fluorescence of 8.03 z-score.
The log fluorescence of `TGCTTCCTAATTCTCTTTTCGTGCTAG` is reported as 1.19 z-score.
